Experimental data of several laboratories.
Compare with care: the assays were run in different laboratories.
Organism: Staphylococcus aureus

SMILES = CC(C)C[C@H](NC(=O)[C@H](Cc1c[nH]c2ccccc12)NC(=O)[C@H](CC(C)C)NC(=O)[C@@H](NC(=O)[C@H](CC(C)C)NC(=O)[C@H](CCCNC(=N)N)NC(=O)[C@@H](N)CCCNC(=N)N)[C@@H](C)O)C(=O)N[C@H](C(=O)N[C@@H](CC(C)C)C(=O)N[C@@H](CCCNC(=N)N)C(=O)N[C@@H](CCCNC(=N)N)C(N)=O)[C@@H](C)O; system = MRSA 43300; setting = 24 h, 37 °C; MIC = 4 µM
SMILES = CCCCCCCC(=O)N[C@@H](CCCNC(=N)N)C(=O)N[C@@H](CCCNC(=N)N)C(=O)N[C@@H](CCCNC(=N)N)C(=O)N[C@@H](CCCNC(=N)N)C(=O)N[C@H](C(=O)N[C@@H](CC(C)C)C(=O)N[C@H](C(=O)N[C@@H](CCCCN)C(=O)N[C@@H](CCCCN)C(=O)N[C@H](C(=O)N[C@@H](CC(C)C)C(=O)N[C@@H](CCCCN)C(=O)N[C@@H](CC(C)C)C(=O)N[C@@H](CCCCN)C(=O)N[C@@H](CO)C(=O)N[C@@H](CO)C(=O)N[C@@H](C)C(=O)N[C@@H](Cc1ccc(O)cc1)C(N)=O)C(C)C)[C@@H](C)CC)[C@@H](C)CC; assay = broth microdilution; system = ATCC 29213; setting = highest value reported; MIC = 64 µM
SMILES = CC[C@H](C)[C@H](NC(=O)[C@H](CC(C)C)NC(=O)[C@H](CCCNC(=N)N)NC(=O)[C@@H](N)CCCNC(=N)N)C(=O)N[C@@H](CCCNC(=N)N)C(=O)N[C@H](C(=O)N[C@@H](CCCCN)C(=O)N[C@H](C(=O)NCC(=O)N1CCC[C@H]1C(=O)N[C@H](C(=O)N[C@H](C(=O)N[C@@H](Cc1ccc(O)cc1)C(=O)N[C@@H](CCCCN)C(=O)N[C@@H](Cc1ccc(O)cc1)C(=O)N[C@@H](Cc1ccccc1)C(=O)N[C@@H](CCCCN)C(=O)N[C@@H](CCCCN)C(=O)N[C@@H](CCC(N)=O)C(=O)N[C@@H](CC(C)C)C(=O)N[C@@H](CC(C)C)C(=O)N[C@@H](CCCCN)C(=O)N[C@@H](CCCCN)C(N)=O)[C@@H](C)CC)[C@@H](C)CC)[C@@H](C)O)[C@@H](C)O; system = CCARM 3095, methicillin-resistant, Mueller-Hinton broth; setting = 24 h; MIC = > 128 µM
SMILES = CN[C@H](CC(C)C)C(=O)N[C@H]1C(=O)N[C@@H](CC(N)=O)C(=O)N[C@H]2C(=O)N[C@H]3C(=O)N[C@H](C(=O)N[C@H](C(=O)O)c4cc(O)cc(O)c4-c4cc3ccc4O)[C@H](O)c3ccc(c(Cl)c3)Oc3cc2cc(c3O[C@@H]2O[C@H](CO)[C@@H](O)[C@H](O)[C@H]2O[C@H]2C[C@](C)(N)[C@H](O)[C@H](C)O2)Oc2ccc(cc2Cl)[C@H]1O; assay = broth microdilution; system = COL (MRSA), cation-adjusted Mueller-Hinton broth; MIC = 2 mg/L
SMILES = CCOc1ccc2ccccc2c1C(=O)N[C@@H]1C(=O)N2[C@@H]1SC(C)(C)[C@@H]2C(=O)O; system = CRB, PBP4 overexpressor; MIC = 256 mg/L
SMILES = CC[C@H](C)[C@H](NC(=O)[C@@H](NC(=O)[C@H](Cc1ccccc1)NC(=O)CNC(=O)[C@H](CCC(N)=O)NC(=O)[C@H](CCCCN)NC(=O)[C@H](C)N)C(C)C)C(=O)N[C@@H](Cc1ccc(O)cc1)C(=O)N[C@@H](CCCNC(=N)N)C(=O)N[C@H](C(=O)N[C@@H](CCCNC(=N)N)C(=O)N[C@H](C(=O)N[C@@H](CCCNC(=N)N)C(=O)N[C@@H](CCCNC(=N)N)C(=O)NCC(=O)N[C@@H](CC(N)=O)C(=O)N[C@@H](CCCNC(=N)N)C(=O)N[C@@H](CCCCN)C(N)=O)C(C)C)C(C)C; assay = broth dilution; system = ATCC 25923, Mueller-Hinton broth; setting = 24 h, 37 °C; MIC = 100 µM
SMILES = CC[C@H](C)[C@H](NC(=O)[C@H](CC(C)C)NC(=O)[C@H](CCCNC(=N)N)NC(=O)[C@@H](N)CCCNC(=N)N)C(=O)N[C@@H](CCCNC(=N)N)C(=O)N[C@@H](CCCCN)C(=O)N[C@@H](CC(C)C)C(=O)N[C@@H](CCCCN)C(=O)NCC(=O)N[C@@H](CC(C)C)C(=O)N[C@@H](CCCCN)C(=O)N[C@@H](CCCCN)C(=O)N[C@@H](Cc1ccc(O)cc1)C(=O)N[C@@H](CC(C)C)C(=O)N[C@@H](Cc1ccc(O)cc1)C(=O)N[C@@H](Cc1ccccc1)C(=O)N[C@@H](CCCCN)C(=O)N[C@@H](CC(C)C)C(=O)N[C@@H](CCC(N)=O)C(=O)N[C@@H](CC(C)C)C(=O)N[C@@H](CC(C)C)C(=O)N[C@@H](CCCCN)C(=O)N[C@@H](CCCCN)C(N)=O; assay = broth microdilution; system = KCTC 1621, Mueller-Hinton broth; setting = 24 h, 37 °C; MIC = 8 µM
SMILES = COc1ccnc(NC(=S)N2CCN(c3ncc(C(F)(F)F)cc3Cl)CC2)c1; system = MSSA clinical strain; MIC = 3.3 µM
SMILES = CC[C@H](C)[C@H](N)C(=O)N[C@@H](CC(C)C)C(=O)NCC(=O)N[C@@H](CCC(=O)O)C(=O)N[C@H](C(=O)N[C@@H](Cc1c[nH]c2ccccc12)C(=O)N[C@@H](CCCCN)C(=O)NCC(=O)N[C@H](C(=O)N[C@@H](CCCCN)C(=O)N[C@@H](CC(=O)O)C(=O)N[C@H](C(=O)N[C@@H](CC(C)C)C(N)=O)[C@@H](C)CC)[C@@H](C)CC)[C@@H](C)CC; assay = broth microdilution; system = ATCC 25923; setting = added: NaCl 150 mM; MIC = > 100 µM
SMILES = Cc1ccc2[nH]c3c(c2c1)CCCC3NCCc1ccc(O)cc1 (stereo not shown); assay = broth microdilution; MIC = > 16 mg/L
SMILES = CC[C@H](C)[C@H](NC(=O)[C@H](Cc1ccccc1)NC(=O)[C@@H](NC(=O)[C@H](Cc1ccccc1)NC(=O)[C@@H]1CCCN1C(=O)[C@@H](NC(=O)[C@H](C)N)[C@@H](C)CC)[C@@H](C)CC)C(=O)N[C@@H](Cc1c[nH]c2ccccc12)C(=O)N[C@@H](CCCNC(=N)N)C(=O)N[C@@H](CC(C)C)C(=O)N[C@@H](CC(C)C)C(=O)N[C@@H](CCCNC(=N)N)C(=O)N[C@@H](CCCCN)C(=O)NCC(N)=O; assay = broth microdilution; system = ATCC 35556; setting = 18 h, 37 °C; MIC = 1.88 µM
SMILES = CC[C@H](C)[C@H](NC(=O)[C@H](CC(C)C)NC(=O)[C@H](CCCNC(=N)N)NC(=O)[C@@H](N)CCCNC(=N)N)C(=O)N[C@@H](CCCNC(=N)N)C(=O)N[C@@H](CCCCN)C(=O)N[C@@H](CC(C)C)C(=O)N[C@@H](CCCCN)C(=O)NCC(=O)N1CCC[C@H]1C(=O)N[C@H](C(=O)N[C@H](C(=O)N[C@@H](Cc1ccc(O)cc1)C(=O)N[C@@H](CC(C)C)C(=O)N[C@@H](Cc1ccc(O)cc1)C(=O)N[C@@H](Cc1ccccc1)C(=O)N[C@@H](CCCCN)C(=O)N[C@@H](CC(C)C)C(=O)N[C@@H](CCC(N)=O)C(=O)N[C@@H](CC(C)C)C(=O)N[C@@H](CC(C)C)C(=O)N[C@@H](CCCCN)C(=O)N[C@@H](CCCCN)C(N)=O)[C@@H](C)CC)[C@@H](C)CC; system = CCARM 3089, methicillin-resistant, Mueller-Hinton broth; setting = 24 h; MIC = 64 µM
SMILES = CCCCCCCCCCCCCCNC(=O)CP(=O)(O)O; system = ATCC 33591 methicillin-resistant; MIC = 50 mg/L
